Measured values pooled from the literature.
Protocols differ between the studies behind these lines. Numbers after ± are the reported error.

C=C[C@H](OC(C)=O)c1ccc(OC(C)=O)cc1  cleaved PARP level (MDA-MB-231; Western blot; IC50, 24 h; reference: untreated): 7.8 fold
COc1cc(CNC(=O)C[C@H](C)CCC=C(C)C)ccc1OCc1cn(-c2ccccc2Cl)nn1  growth percent (COLO 205; SRB; 10 µM, 48 h): 71.7%
O=C(N1CCCC1)n1cc(-c2ccc(-c3ccccc3)cc2)nn1  SILAC ratio (mouse T-cells; N-terminal labeled proteins, N-terminal enrichment proteomics, measured: UQCRH; 1 nM, 6 h; reference: DMSO): 1.22 ± 0.17
C[C@H](N)C(=O)N[C@@H](Cc1c[nH]c2ccccc12)C(=O)N[C@@H](CCC(N)=O)C(=O)N[C@@H](Cc1c[nH]c2ccccc12)C(=O)N[C@@H](CCCNC(=N)N)C(=O)N[C@@H](Cc1c[nH]c2ccccc12)C(=O)N[C@@H](CCC(N)=O)C(=O)N[C@@H](Cc1c[nH]c2ccccc12)C(=O)N[C@@H](CCCNC(=N)N)C(N)=O  viability (MDA-MB-468; MTT; concentration not given, 2 h, 37 °C, 5% FBS; reference: untreated cells): 53 ± 4%
COc1cc(O)cc(CCc2cc(Cl)ccc2O)c1  NHEJ efficiency reduction (chemoresistant colorectal cancer cells; NHEJ reporter, GFP flow cytometry; concentration not given): ≤ 65%
FC(F)(F)c1ccnc(-c2cc(C(F)(F)F)ccn2)c1.FC(F)(F)c1ccnc(-c2cc(C(F)(F)F)ccn2)c1.[Cl-].[Cl-].[Ru+2].c1csc(-c2ccc(-c3ccc(-c4ccc(-c5nc6c7cccnc7c7ncccc7c6[nH]5)s4)s3)s2)c1  phototherapeutic index (SK-MEL-28; cell viability; normoxia, with: red light 633 nm, 100 J/cm2; reference: dark EC50 over light EC50): 37
C=CC(OC(C)=O)c1cc(OC)c(OC(C)=O)c(OC)c1 (centres unmarked)  integrin beta1 decrease (MDA-MB-231; Western blot; concentration not given, 24 h): 93.3%
Cc1ccc(C(C)C)cc1.O=C(N=P(c1ccccc1)(c1ccccc1)c1ccccc1)c1ccccn1.[Cl-].[Cl][Ru+]  sub-G0 cells increase (MDA-MB-231 and HCC1806; PI flow cytometry; IC20, 24 h): < 1%
CCN(CC)CC(=O)Nc1cccc(-n2cc(-c3ccc4ccc(-c5cn(-c6cccc(NC(=O)CN(CC)CC)c6)nn5)cc4c3)nn2)c1  mRNA level (RCC4; qRT-PCR, measured: HIF-1α; 5 x IC50; reference: untreated): 29.2%
COc1cc(CNC(=O)C[C@H](C)CCC=C(C)C)ccc1OCc1cn(-c2ccc(F)cc2)nn1  growth percent (SK-MEL-28 melanoma cells; SRB; 10 µM, 48 h): 89.6%
CC(=O)OC[C@H]1O[C@@H](Sc2sc(C(=O)c3ccc(Br)cc3)c(N)c2-c2nc3ccccc3s2)[C@H](OC(C)=O)[C@@H](OC(C)=O)[C@@H]1OC(C)=O  growth (NCI/ADR-RES; SRB; 10 µM, 48 h): 57.9%
CCOC(=O)C1NC(c2ccc[n+](C)c2)C23c4c5c6c7c8c9c(c%10c%11c2c2c4c4c%12c5c5c6c6c8c8c%13c9c9c%10c%10c%11c%11c2c2c4c4c%12c%12c5c5c6c8c6c8c%13c9c9c%10c%10c%11c2c2c4c4c%12c5c6c5c8c9c%10c2c45)C713 (centres unmarked)  remaining activity (BC-3; reporter gene, measured: TCF4 Wnt/β-catenin reporter; 20 µM, 24 h; reference: DMSO): 60%
CC(Cc1ccc(Cl)cc1)=C(c1ccc(Cl)cc1)c1ccc(OCCN(C)C)cc1  GI50 (NCI-H522; cell growth or viability, SRB): 5.31 µM
CCCC(CCC)C(=O)[O][Pt]([NH2])([NH2])([Cl])([Cl])[O]C(=O)C(C)c1ccc(CC(C)C)cc1 (centres unmarked)  IC50 fold lower (six human cancer lines; cytotoxicity, MTT; reference: oxaliplatin): ~3 fold
CCOC(=O)C/C(C)=N/NC(=O)c1nc2ccccc2n(C)c1=O  growth inhibition (MCF7, HepG2 and HCT-116; cell growth, MTT; 10 µM, range over three lines): ≥ 88.7%
COc1ncccc1CN(C(=O)OCc1ccc([N+](=O)[O-])s1)[C@H]1C[C@@H]1c1ccccc1 (racemic)  selectivity ratio (THP-1 cells; colony forming unit; reference: EC50 wild type over NTR-expressing): 1 ± 1
Cc1nc(Nc2ncc(C(=O)Nc3c(C)cccc3Cl)s2)cc(N2CCN(C(=O)CN)CC2)n1  onset of apoptosis (KU812; flow cytometry; 20 nM): 3 h
COc1cc(CNC(=O)C[C@H](C)CCC=C(C)C)ccc1OCc1cn(-c2ccc(C#N)cc2)nn1  growth percent (COLO 205; SRB; 10 µM, 48 h): 95.6%
C=CC(OC(C)=O)c1ccc(OC(C)=O)c(OC)c1 (centres unmarked)  integrin beta1 decrease (MDA-MB-231; Western blot; concentration not given, 24 h): 37.1%
O=C(Cn1c(=O)c(Cc2ccccc2)nc2ccccc21)NN1C(=O)c2ccccc2C1=O  mRNA level (HCT-116; qRT-PCR, measured: p53; concentration not given, 72 h; reference: untreated): 3.12 ± 0.078 fold
COc1ccc(NC(=O)N/N=C2\CC3(CCN(C)CC3)Oc3ccccc32)cc1  cell cycle distribution (HCT-116; PI staining, flow cytometry; concentration not given, %G0-G1): 47.8%
CC(=O)N[C@H](C(=O)N[C@H](C(=O)N[C@@H](CCCNC(=N)N)C(=O)N1Cc2ccccc2C[C@H]1C(=O)N[C@@H](Cc1ccccc1)C(N)=O)C1CCCCC1)C(C)C  T cell proliferation (BC-3 T cells; inhibitor, CFSE dilution; concentration not given, 5 days, with: MBP87-99): inhibited
O=Cc1c(O)ccc2ccccc12  log2 fold change (HUVEC; RNA sequencing, measured: ORC1; 75 µM, 24 h; reference: DMSO): -3.43
COc1ccc([C@@H]2CC(=O)c3c(O)cc(O[C@@H]4O[C@H](CO[C@@H]5O[C@@H](C)[C@H](O)[C@@H](O)[C@H]5O)[C@@H](O)[C@H](O)[C@H]4O)cc3O2)cc1O  cell count (A549; trypan blue exclusion; 150 µg/mL, 24 h): 7500 ± 366
CCCCCCCCCCCCCCCC(=O)OCC(CSC[C@H](N)C(=O)N[C@@H](CO)C(=O)N[C@@H](CCCCN)C(=O)N[C@@H](CCCCN)C(=O)N[C@@H](CCCCN)C(=O)N[C@@H](CCCCN)C(=O)NCCCCCC(=O)N[C@@H](CCCCN)C(=O)N[C@@H](CC(C)C)C(=O)N[C@H](C(=O)N[C@@H](Cc1ccccc1)C(=O)N[C@@H](Cc1ccccc1)C(=O)N[C@@H](Cc1ccc2ccccc2c1)C(=O)O)C(C)C)OC(=O)CCCCCCCCCCCCCCC (some centres unmarked)  mRNA level (BV-2; RT-qPCR, measured: Marco; 1.0 µM, 12 h): increased
CC(=O)OC[C@H]1O[C@@H](Sc2sc(C(=O)c3ccc(C)cc3)c(N)c2-c2nc3ccccc3s2)[C@H](OC(C)=O)[C@@H](OC(C)=O)[C@@H]1OC(C)=O  growth (OVCAR-4; SRB; 10 µM, 48 h; reference: untreated): -13.9%
COc1cc(CNC(=O)C[C@H](C)CCC=C(C)C)ccc1OCc1cn(-c2ccccc2F)nn1  growth percent (SK-MEL-28 melanoma cells; SRB; 10 µM, 48 h): 94.9%
CSc1nc(Nc2ccc(/C(C)=N/NC(=O)c3ccc([N+](=O)[O-])cc3[N+](=O)[O-])cc2)c(C#N)c(-c2ccccc2)n1  S phase cells (HCT-116; flow cytometry; concentration not given; reference: untreated control): 2.68 fold
CC(=O)N1CCC[C@H]1C(=O)N[C@@H](CC/C=C/C(=O)N(C)C)C(=O)N[C@@H](CCNC(=O)CCCCCN1C(=CC=CC=CC2=[N+](C)c3ccc(S(=O)(=O)[O-])cc3C2(C)C)C(C)(C)c2cc(S(=O)(=O)O)ccc21)C(=O)N1CCC[C@H]1C(=O)N[C@@H](Cc1ccccc1)C(N)=O  Pearson colocalization coefficient (NRK cells; measured: fluorescent α2-macroglobulin; 1 µM): 0.79
COc1ccc([C@@H]2CC(=O)c3c(O)cc(O[C@@H]4O[C@H](CO[C@@H]5O[C@@H](C)[C@H](O)[C@@H](O)[C@H]5O)[C@@H](O[C@H]5O[C@H](CO)[C@@H](O)[C@H](O)[C@H]5O)[C@H](O)[C@H]4O)cc3O2)cc1O  gap closure (A549; cell migration, scratch; 100 µg/mL, 48 h): 5.25 ± 0.2%
O=C1Nc2ccc(F)cc2C1=Cc1c(Cl)[nH]c2c1ccc1ccccc12  TGI (CNS cancer subpanel of NCI-60; 48 h): 6.46 µM
COCc1nc(C(F)(F)F)[nH]c1-c1cc(C(=O)N2CC(c3ccc(C#N)cc3)C2)c(C)cc1C  inhibition (NCI-H520; α-tubulin palmitoylation, acyl-biotin exchange, measured: palmitoyl-α-tubulin; concentration not given): 27%
N=C(N)NCCC[C@H](NC(=O)[C@H](Cc1c[nH]c2ccccc12)NC(=O)[C@H](CCC(N)=O)NC(=O)[C@H](Cc1c[nH]c2ccccc12)NC(=O)[C@H](CCCNC(=N)N)NC(=O)[C@H](Cc1c[nH]c2ccccc12)NC(=O)[C@H](CCC(N)=O)NC(=O)[C@H](Cc1c[nH]c2ccccc12)NC(=O)[C@@H](N)CCCNC(=N)N)C(N)=O  viability (young human fibroblasts primary; MTT; concentration not given, 48 h, 37 °C, 5% FBS; reference: untreated cells): 92 ± 2%
COc1cc(CNC(=O)C[C@H](C)CCC=C(C)C)ccc1OCc1cn(-c2ccc([N+](=O)[O-])cc2)nn1  growth percent (SNB-75 CNS cancer cells; SRB; 10 µM, 48 h): 78%
COCC12C(=O)NC3C4(C(OC)CC1O)C1CC5(O)C(OC)C(O)C(OC(C)=O)(C1C5OC(=O)c1ccccc1)C3(O)C(OC)C24 (centres unmarked)  cells with nuclear export of MK5 (PC-12 expressing EGFP-MK5; 20 µM, with: forskolin 30 min): 20%
CC1OC2OC3C4=C(OC3(C)C12O)C(=O)c1c(O)cccc1C4=O (centres unmarked)  late apoptotic cells (MDA-MB-231; annexin V/PI flow cytometry; 2 µg/mL, 48 h): 10.7%
COc1cc(CNC(=O)C[C@H](C)CCC=C(C)C)ccc1OCc1cn(-c2ccccc2[N+](=O)[O-])nn1  growth percent (SK-MEL-28 melanoma cells; SRB; 10 µM, 48 h): 85.3%
CC/C=C\C/C=C\C/C=C\C/C=C\C/C=C\C/C=C\CCC(=O)Nc1ccn(C2OC(CO)C(O)C2(F)F)c(=O)n1 (centres unmarked)  TGI (Malme-3M; NCI60 screen): 22.8 µM
COc1cc(CNC(=O)C[C@H](C)CCC=C(C)C)ccc1O  growth (NCI/ADR-RES; SRB; 10 µM, 48 h): 94.5%
CC(C)[C@@H]1NC(=O)[C@@H](Cc2ccccc2)NC(=O)[C@H](CC(=O)O)NC(=O)CNC(=O)[C@H](CCCNC(=N)N)NC1=O  clonogenic survival decrease (B16-F1; 0.1 µM, 3 h; reference: untreated): 7%
NS(=O)(=O)c1ccc(-n2cc(Cn3c(=O)c(Cc4ccccc4)nc4ccccc43)nn2)cc1  mRNA level (HCT-116; qRT-PCR, measured: p53; concentration not given, 72 h; reference: untreated): 4.53 ± 0.063 fold
OCCNc1ccc(-c2nc3cc(OCCF)ccc3n3cccc23)cc1  concentration for near-complete inhibition (HEK293 DR-GFP reporter; homologous recombination; 48 h): 30 to 40 µM
Cc1ccc(C(C)C)cc1.[Cl-].[Cl][Ru+].[Ru+].c1ccc(-c2cn(CCCCOc3ccccc3-c3nc4ccccc4s3)nn2)nc1  early apoptotic cells (MCF7; annexin V/PI flow cytometry; 8 µM, 24 h): 8.68%
CC(C)C[C@H](NC(=O)CNC(=O)[C@H](CC(N)=O)NC(=O)[C@@H]1CCCN1C(=O)[C@H](C)NC(=O)[C@H](C)NC(=O)[C@H](C)NC(=O)[C@H](CC(C)C)NC(=O)[C@@H](N)CC(C)C)C(=O)O  aberrant prometaphase/metaphase cells (HeLa-H2B-GFP, QQ transfected; 30 µM): 14%
Cc1ccc(-n2nnnc2[S+]([O-])Cc2c(F)cccc2Cl)cc1Cl (centres unmarked)  downregulated proteins (Ramos; LFQ mass spectrometry; 10 µM, 8 h): 1710 count
C#CCNC(=O)C(CC(C)(C)F)NC(c1ccc(-c2ccc(S(C)(=O)=O)cc2)cc1)C(F)(F)F (centres unmarked)  effective concentration (human osteoclasts; bone resorption, inhibitor; cortical bone slices; 504 h): ≥ 80 nM
Cn1cc(-c2cc(N3CCCCS3(=O)=O)ccc2N[C@H]2CC[C@H](C)CC2)c2cc[nH]c2c1=O (stereo in doubt)  GI50 (TMD8; cell growth or viability, CCK-8; 72 h): 0.0022 µM

Some of these lines once more:
Cc1nc(Nc2ncc(C(=O)Nc3c(C)cccc3Cl)s2)cc(N2CCN(C(=O)CN)CC2)n1  onset of apoptosis (KU812; flow cytometry; 20 nM): 3 h
COc1ccc([C@@H]2CC(=O)c3c(O)cc(O[C@@H]4O[C@H](CO[C@@H]5O[C@@H](C)[C@H](O)[C@@H](O)[C@H]5O)[C@@H](O)[C@H](O)[C@H]4O)cc3O2)cc1O  cell count (A549; trypan blue exclusion; 150 µg/mL, 24 h): 7500 ± 366
CC(Cc1ccc(Cl)cc1)=C(c1ccc(Cl)cc1)c1ccc(OCCN(C)C)cc1  GI50 (NCI-H522; cell growth or viability, SRB): 5.31 µM
O=C1Nc2ccc(F)cc2C1=Cc1c(Cl)[nH]c2c1ccc1ccccc12  TGI (CNS cancer subpanel of NCI-60; 48 h): 6.46 µM
O=C(Cn1c(=O)c(Cc2ccccc2)nc2ccccc21)NN1C(=O)c2ccccc2C1=O  mRNA level (HCT-116; qRT-PCR, measured: p53; concentration not given, 72 h; reference: untreated): 3.12 ± 0.078 fold
C=C[C@H](OC(C)=O)c1ccc(OC(C)=O)cc1  cleaved PARP level (MDA-MB-231; Western blot; IC50, 24 h; reference: untreated): 7.8 fold
COc1cc(CNC(=O)C[C@H](C)CCC=C(C)C)ccc1OCc1cn(-c2ccccc2[N+](=O)[O-])nn1  growth percent (SK-MEL-28 melanoma cells; SRB; 10 µM, 48 h): 85.3%
OCCNc1ccc(-c2nc3cc(OCCF)ccc3n3cccc23)cc1  concentration for near-complete inhibition (HEK293 DR-GFP reporter; homologous recombination; 48 h): 30 to 40 µM
